Experimental data of several laboratories.
Each numbered part is a random draw from the data of one study; scales do not carry over between parts. Changes are numbered by the printed parent chain.
Sequence of UniProt Q5VVX9 (whole entry, looked up): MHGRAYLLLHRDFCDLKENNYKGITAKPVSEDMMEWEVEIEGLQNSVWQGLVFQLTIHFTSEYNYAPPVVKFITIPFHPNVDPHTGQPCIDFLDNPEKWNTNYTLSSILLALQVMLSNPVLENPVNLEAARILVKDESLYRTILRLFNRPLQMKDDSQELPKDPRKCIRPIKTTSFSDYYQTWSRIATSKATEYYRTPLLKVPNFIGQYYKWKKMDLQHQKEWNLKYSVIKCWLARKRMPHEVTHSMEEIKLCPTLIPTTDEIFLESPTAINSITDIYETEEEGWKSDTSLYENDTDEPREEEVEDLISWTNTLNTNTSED
Sequence of UniProt P60604 (whole entry, looked up): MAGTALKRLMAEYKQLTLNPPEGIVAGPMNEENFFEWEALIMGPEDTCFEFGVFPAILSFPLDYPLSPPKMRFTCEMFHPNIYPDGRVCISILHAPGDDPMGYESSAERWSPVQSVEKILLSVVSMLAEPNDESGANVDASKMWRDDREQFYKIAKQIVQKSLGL
Sequence of UniProt Q8WVN8 (whole entry, looked up): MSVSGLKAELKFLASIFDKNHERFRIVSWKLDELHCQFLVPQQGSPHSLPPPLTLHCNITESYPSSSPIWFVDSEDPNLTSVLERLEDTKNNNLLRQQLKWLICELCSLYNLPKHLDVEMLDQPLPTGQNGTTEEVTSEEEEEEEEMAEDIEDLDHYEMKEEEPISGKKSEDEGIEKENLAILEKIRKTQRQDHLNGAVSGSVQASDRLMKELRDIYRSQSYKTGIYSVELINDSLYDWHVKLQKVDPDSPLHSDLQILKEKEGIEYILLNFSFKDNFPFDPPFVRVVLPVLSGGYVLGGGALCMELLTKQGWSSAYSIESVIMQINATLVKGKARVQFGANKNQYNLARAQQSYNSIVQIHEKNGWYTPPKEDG
Sequence of UniProt Q13404 (whole entry, looked up): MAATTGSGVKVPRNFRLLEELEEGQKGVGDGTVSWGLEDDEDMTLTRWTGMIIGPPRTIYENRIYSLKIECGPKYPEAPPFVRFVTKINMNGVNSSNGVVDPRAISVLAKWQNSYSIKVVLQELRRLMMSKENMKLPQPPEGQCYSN
Sequence of UniProt P62256 (whole entry, looked up): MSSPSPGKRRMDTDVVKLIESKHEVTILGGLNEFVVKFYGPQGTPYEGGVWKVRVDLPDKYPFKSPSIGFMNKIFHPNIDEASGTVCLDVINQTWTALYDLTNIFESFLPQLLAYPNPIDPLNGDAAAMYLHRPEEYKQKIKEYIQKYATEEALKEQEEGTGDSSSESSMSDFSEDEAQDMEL
Sequence of UniProt P49427 (whole entry, looked up): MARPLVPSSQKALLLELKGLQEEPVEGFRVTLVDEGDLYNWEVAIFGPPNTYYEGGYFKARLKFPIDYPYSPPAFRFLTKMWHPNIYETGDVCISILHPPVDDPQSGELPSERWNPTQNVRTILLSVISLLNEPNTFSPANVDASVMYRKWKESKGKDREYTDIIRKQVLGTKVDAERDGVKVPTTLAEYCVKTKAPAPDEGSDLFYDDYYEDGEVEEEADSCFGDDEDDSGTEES
Sequence of UniProt P61077 (whole entry, looked up): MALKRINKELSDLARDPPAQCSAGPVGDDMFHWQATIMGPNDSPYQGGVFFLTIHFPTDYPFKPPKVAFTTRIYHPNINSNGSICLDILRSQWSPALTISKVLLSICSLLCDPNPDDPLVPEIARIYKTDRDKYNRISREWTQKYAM
Sequence of UniProt O14933 (whole entry, looked up): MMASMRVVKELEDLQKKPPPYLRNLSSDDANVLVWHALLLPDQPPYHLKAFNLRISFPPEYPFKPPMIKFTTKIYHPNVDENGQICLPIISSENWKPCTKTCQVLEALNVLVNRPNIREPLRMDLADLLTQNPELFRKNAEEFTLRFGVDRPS

Series 1 — target: CREB3L3, bZIP domain (human); technique: DHFR protein complementation; matrix: yeast; relative to: wild-type JUN-FOS pair; direction: higher = stronger binding; endpoint: binding fitness
Notes: single substitutions, most at no-binding floor
Parent: JUN, bZIP domain (human); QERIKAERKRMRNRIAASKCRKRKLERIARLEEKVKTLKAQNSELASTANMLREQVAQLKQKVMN; partner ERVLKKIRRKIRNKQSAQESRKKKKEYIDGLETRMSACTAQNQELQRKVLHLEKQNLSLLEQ
Change = L38C; result = -1.5 natural log
Change = R30M; result = -1.29 natural log
Change = L38N; result = -1.51 natural log
Change = A29M; result = -1.41 natural log
Change = L38D; result = -1.48 natural log
Change = Q41A; result = -1.31 natural log
Change = L59C; result = -1.34 natural log
Change = T37Q; result = -1.1 natural log
Change = E33D; result = -1.42 natural log
Change = M51E; result = -1.26 natural log
Change = L52S; result = -1.51 natural log

Series 2 — technique: universal PBM; molecule type: double-stranded DNA, one strand shown; matrix: in vitro; concentration: 600 nM; direction: higher = stronger binding; endpoint: E-score
Target: Sal-like protein 4, full length isoform A (SALL4, Homo sapiens, UniProt Q9UJQ4, residues 1-1053)
Sequence of UniProt Q9UJQ4 (whole entry, looked up): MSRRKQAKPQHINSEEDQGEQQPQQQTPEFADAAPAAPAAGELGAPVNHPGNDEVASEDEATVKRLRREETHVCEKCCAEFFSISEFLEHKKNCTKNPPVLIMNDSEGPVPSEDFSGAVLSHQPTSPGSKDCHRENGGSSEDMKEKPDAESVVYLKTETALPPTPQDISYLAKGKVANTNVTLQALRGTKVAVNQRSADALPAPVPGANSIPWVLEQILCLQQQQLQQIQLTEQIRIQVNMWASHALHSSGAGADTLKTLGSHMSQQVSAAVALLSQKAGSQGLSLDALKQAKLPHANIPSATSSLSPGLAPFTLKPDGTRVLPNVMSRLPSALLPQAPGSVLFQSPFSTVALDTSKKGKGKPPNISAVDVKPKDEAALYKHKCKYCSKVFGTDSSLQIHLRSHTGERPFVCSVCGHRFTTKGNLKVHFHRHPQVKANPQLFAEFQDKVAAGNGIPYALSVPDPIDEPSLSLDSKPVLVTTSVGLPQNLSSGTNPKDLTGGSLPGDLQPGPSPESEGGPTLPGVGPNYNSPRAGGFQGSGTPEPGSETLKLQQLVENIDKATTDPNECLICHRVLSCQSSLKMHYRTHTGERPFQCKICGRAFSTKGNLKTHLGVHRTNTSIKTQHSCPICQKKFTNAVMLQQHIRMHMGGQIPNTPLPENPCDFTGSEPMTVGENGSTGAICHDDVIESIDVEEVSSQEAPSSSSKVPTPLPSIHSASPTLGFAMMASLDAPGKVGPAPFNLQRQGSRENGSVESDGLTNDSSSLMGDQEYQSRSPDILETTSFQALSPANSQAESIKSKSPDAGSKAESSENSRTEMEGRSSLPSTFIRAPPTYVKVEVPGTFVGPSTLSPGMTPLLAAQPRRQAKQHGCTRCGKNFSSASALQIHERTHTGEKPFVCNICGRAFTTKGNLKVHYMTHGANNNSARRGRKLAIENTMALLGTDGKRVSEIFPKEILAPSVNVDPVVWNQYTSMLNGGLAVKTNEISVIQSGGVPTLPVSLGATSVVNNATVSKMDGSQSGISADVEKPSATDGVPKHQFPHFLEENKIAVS
Notes: 8-mer, flanks averaged, mean of replicates
Oligonucleotide = ATTACCTA; result = 0.22
Oligonucleotide = TGGTTGAA; result = -0.0452
Oligonucleotide = ACCTTTCC; result = 0.0619
Oligonucleotide = ATACCCCC; result = -0.0519
Oligonucleotide = CGCAGCAG; result = -0.219
Oligonucleotide = GGCCGTAC; result = -0.159
Oligonucleotide = CTCTTTCC; result = -0.258
Oligonucleotide = CACGACGA; result = -0.0934
Oligonucleotide = AACAACTC; result = -0.0611
Oligonucleotide = GTTACGGA; result = -0.0907
Oligonucleotide = ATCTGTCA; result = 0.119
Oligonucleotide = AGGCATAG; result = -0.0197
Oligonucleotide = ATACCACA; result = 0.121
Oligonucleotide = ATGGCTAG; result = -0.0169
Oligonucleotide = AATTCAGA; result = 0.213
Oligonucleotide = GAAGGTCC; result = -0.299

Series 3 — Molecule: B1 (TRIM62 RING domain); technique: yeast two-hybrid; matrix: yeast; notes: mostly zero background; relative to: not given; direction: higher = stronger interaction; endpoint: lacZ reporter activity
B1: TRIM62 RING domain (UniProt Q9BVG3); chain MACSLKDELLCSICLSIYQDPVSLGCEHYFCRRCITEHWVRQEAQGARDCPECRRTFAEPALAP
target = CDC34 UBC core domain (UniProt P49427); result = 0
target = UBE2U UBC core domain (UniProt Q5VVX9); result = 0
target = UBE2G2 UBC core domain (UniProt P60604); result = 0
target = UBE2Q2 UBC core domain (UniProt Q8WVN8); result = 0
target = UBE2H UBC core domain (UniProt P62256); result = 0
target = UBE2D3 UBC core domain (UniProt P61077); result = 0
target = UBE2V1 UBC core domain (UniProt Q13404); result = 0
target = UBE2L6 UBC core domain (UniProt O14933); result = 0

Series 4 — technique: protein binding microarray; molecule type: double-stranded DNA, one strand shown; matrix: in vitro; concentration: not given; relative to: not given; direction: higher = stronger binding; endpoint: E-score
Target: Histone acetyltransferase KAT6A, both winged helices, GST fusion (KAT6A, Homo sapiens, UniProt Q92794, residues 1-181)
Notes: 8-mer, flanks averaged, mean of 2 arrays, mostly near background
Target sequence (chain): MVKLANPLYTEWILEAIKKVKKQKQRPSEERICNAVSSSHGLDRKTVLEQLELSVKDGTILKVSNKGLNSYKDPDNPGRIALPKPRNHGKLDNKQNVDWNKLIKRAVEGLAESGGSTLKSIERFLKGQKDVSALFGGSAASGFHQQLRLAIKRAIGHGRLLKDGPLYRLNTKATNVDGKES
Oligonucleotide = ACTGGGCT; result = -0.176
Oligonucleotide = AACCCAGA; result = -0.15
Oligonucleotide = TCCGTAGA; result = 0.143
Oligonucleotide = CACCCCTG; result = -0.286
Oligonucleotide = GAACCTTC; result = -0.0624
Oligonucleotide = AGTAGGAC; result = -0.0868
Oligonucleotide = CACCGTAA; result = 0.0797
Oligonucleotide = AATTACGT; result = -0.127
Oligonucleotide = ATTTTGGC; result = 0.0479
Oligonucleotide = AGATGGCT; result = -0.123
Oligonucleotide = ATCGTCAT; result = 7e-05
Oligonucleotide = ACGCTAGC; result = 0.153
Oligonucleotide = TCATTAAA; result = 0.0607
Oligonucleotide = ACTGCCCT; result = -0.0101
Oligonucleotide = AGGTGTAC; result = -0.0467
Oligonucleotide = AAGAGGCA; result = -0.161

Series 5 — target: CCNE1, cyclin fold, Cln2 fusion (human); technique: yeast growth competition, sequencing; matrix: yeast; notes: weak parent motif; relative to: not given; direction: higher = stronger binding; endpoint: normalised enrichment score
Parent: WEE2 docking peptide (human); KELRQKLNFSYCE
Change = L7A; result = -0.158
Change = S10A; result = 0.0232
Change = Q5A; result = -0.189
Change = F9A; result = 0.355
Change = K1A; result = 0.0212
Change = Y11A; result = -0.0459

Series 6 — technique: RNA Bind-n-Seq; molecule type: RNA; matrix: in vitro; concentration: 365 nM; relative to: no-protein control; direction: higher = stronger binding; endpoint: RBNS enrichment (R)
Target: RNA binding protein fox-1 homolog 2, RRM domain, GST-SBP tag (RBFOX2, Homo sapiens, UniProt O43251-10, residues 100-194)
Notes: natural RNA segment, single round, ends assumed
Shared flanks, not repeated: GGGAGUUCUACAGUCCGACGAUC … UGGAAUUCUCGGGUGCCAA
Construct (chain): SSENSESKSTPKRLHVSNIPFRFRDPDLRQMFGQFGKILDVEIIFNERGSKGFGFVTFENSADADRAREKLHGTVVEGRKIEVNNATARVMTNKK
Oligonucleotide = CUUGUGCACAGAGUAACUUUUCUAGCUGCCCCUUUCUGUAAUAGUGAAAGUUGGUAUUUAACAUUUAUUCAUUUUUAAAAUAUUUGGAAGGUCUGAGCUUGUGAAAAGAA; result = 0.387
Oligonucleotide = AGCAGGCCGUGCGUGCGGACAGUCCUCAUUGCUGUGAGCGCAGUUACCACCUGGUGCCUCACUGUCAAACUGAACGAGGGGGUGUGGCCAUGGCCUGAGCCACUGUUCUG; result = 0.352
Oligonucleotide = GGUGCACGUCGCGGAAAUACUGGUUUAACUACUAGUGUGUUACUGCCUCAUUUAUCUACAUAACAUUAUUAACUAGAACAUAAUGCUUUCAAAGUUUAAGUUAAUGUUAU; result = 0.389
Oligonucleotide = UUUGUAUUUGGUAGUCUUAAUGUAUCUGGCAUUUGGGUGAACUGUGGACAUACUAGAGUUGAUUAUAGACACAUUGAUUUUGAAUAAGGAACUGCUGGCCGAGCCCGCUG; result = 1.66
Oligonucleotide = UACUGUAAUGAUUCUCAAAUUAACUGUAUUAGUGUAAGCUUUGUCACUAUGCGCUAAACGUAAUCCUGACUUUUUGACCCCAGUUACCAUUAAUAGUUUCUGGUUGACCA; result = 0.546
Oligonucleotide = UUGCUUUGGGGGGAGGAUGUUAAAAUCCAGAACUUAGCUAGUUAGUACCUGCAAGGCAGGUGAGGGCUCUAGCAAGCCCAUGAAGUUCUCAGUGAGCCUCAUUCCCUAGA; result = 0.268
Oligonucleotide = UUGGUGAGGUUUGAAGUUUCAGUGUGUCUUCUACAAAAUGACAGCCACAUCUACAUUAGCUUGAGAAGCAGAGGAUUCUGUCAACAUGUGGCCAAGGGCUGUUGGACAAA; result = 0.711
Oligonucleotide = AAAUUCAGACAACACACAUGGAUCCCCUUAAAACAUGUAAAUGUGUCAGAACACGGUUGACCUGCCGCCUUCUUGAACCUGGUGGCCCCCGUUGGAACUAUCAGUGGCGU; result = 0.358
Oligonucleotide = AGCCCUGUUGUGCCACAGAGUGUAGCCAGGUCCCCCUGCAGCUAGUCCUAGUGAACCUCACCCCGAGGCCCUGCAUGGGCCAGCCCCUCCAUCUGUACUUGGUCCAACUG; result = 0.388
Oligonucleotide = GAUAGAAACUGGGACGGAUUCAAGUCACAUGCACGCGGAUAGCAGUAAGCCACACACCUGCCACUUAGCCAGAAUGCCCAGGAUCGCGUUGGUCACUGUUAUUUGCCUAC; result = 3.24
Oligonucleotide = UCCAUUUUAUAGAUGAGGAAACUGAGGCAGUAUGACUGAGGCCGAGAGCAGUGGUUAAGACAGACUUUGGGAUCAAAUCACCCUAGGUGCGGGCAGGUUUCUAGGCUGCU; result = 0.516
Oligonucleotide = UGCCCACCUCUUCUGCGUGCCCCUCUUCUGUCUCAUAGUUGUGUUAAGCUUGCGUAGAAUUGCAGGUCUCUGUACGGGCCAGUUUCUCUGCCUUCUUCCAGGAUCAGGGG; result = 0.553
